# Experimental data of several laboratories.
# Values joined by “and” are separate records of one study, mostly repeats; a detail may differ.
# HTR2C: 5-hydroxytryptamine receptor 2C (HTR2C, Homo sapiens, UniProt P28335)
SMILES,target,test,test system,setting,inhibition
O=C(NO)c1ccc(CN2CCCCc3ccccc32)c(F)c1,HTR2C,"radioligand binding, PDSP radioligand binding",,10 µM,10.7%
COc1cc(C(=O)NS(=O)(=O)c2ccccc2C)ccc1Cc1cn(C)c2ccc(NC(=O)OC3CCCC3)cc12,"LRRC8A/LRRC8C (Homo sapiens, UniProt Q8IWT6+Q8TDW0, L134K/L136K)","ion current, whole-cell patch clamp",HCT LRRC8-/- cells,"10 µM, +100 mV, L134K/L136K heteromers",64% and 94.9% and 87.8% and 55.6% and 84.2%
O=C(CN1CCO[C@@H](COc2cccnc2)C1)N1CCc2ccccc21,HTR2C,radioligand binding,,"concentration not given, added: [3H]mesulergine",44.2%
CN(C(=O)n1cnc(-c2ccc[n+]([O-])c2)c1)C1CCCCC1,"AGTR2 (Homo sapiens, UniProt P50052)",,,10 µM,-2.1%
O=C(O)c1cn(C2CC2)c2cc(N3CCNCC3)c(F)cc2c1=O,"gyrA (Escherichia coli K-12, UniProt P0AES4)","enzyme activity, inhibitor, DNA supercoiling",,100 µM,91.5%
COc1cc2c(cc1OC)C(=O)N(CCCCN1CCN(c3ccccc3OC)CC1)C2,"HTR7 (Homo sapiens, UniProt P34969)",radioligand binding,,"concentration not given, added: [3H]LSD",91.8%
CC[C@@H]1[C@H](F)C(=O)N[C@@H]1COc1nccc2cc(C(N)=O)c(OC)cc12,"CAMK2B (Homo sapiens, UniProt Q13554)","ATP-site probe binding, ActivX profiling",THP-1 cell lysate,"0.01 mM, Lys1 site",1.4%
O=C(CN1CCO[C@H](COc2cccc(Cl)c2)C1)N1CCc2ccccc21,HTR2C,radioligand binding,,"concentration not given, added: [3H]mesulergine",47.2%
NC/C(=C\F)COc1cccc(Cn2c(=S)[nH]c(=O)c3[nH]cnc32)c1,"Protein-lysine 6-oxidase (Homo sapiens, UniProt P28300)","enzyme activity, inhibitor",,3.333 µM,16.6%
